Experimental data from different studies.
Numbers after ± are the reported error.
EGFR L858R/T790M: Epidermal growth factor receptor (EGFR, Homo sapiens, UniProt P00533, L858R/T790M)
EGFR: Epidermal growth factor receptor (EGFR, Homo sapiens, UniProt P00533)
EGFR C797S/L858R/T790M: Epidermal growth factor receptor (EGFR, Homo sapiens, UniProt P00533, C797S/L858R/T790M)
EGFR C797S/del746-750/T790M: Epidermal growth factor receptor (EGFR, Homo sapiens, UniProt P00533, C797S/del746-750/T790M)
EGFR T790M: Epidermal growth factor receptor (EGFR, Homo sapiens, UniProt P00533, T790M)

Structure (SMILES) | target | test | conditions | IC50
C=CC(=O)Nc1cc(Nc2nccc(-c3c(-c4cccc(F)c4)n(C)c4ccccc34)n2)c(OC)cc1N(C)CCN(C)C | EGFR L858R/T790M | enzyme activity, inhibitor |  | 5 nM
Cc1cc(N2CCN(C(=O)CN3CCN(c4ccccc4)CC3)CC2)n2ncnc2n1 | EGFR | enzyme activity, inhibitor |  | 169 nM
COc1cc(N2CCN(C)CC2)ccc1Nc1ncc(Cl)c(Nc2ccccc2NS(=O)(=O)C2CC2)n1 | EGFR C797S/L858R/T790M | enzyme activity, inhibitor, ELISA |  | 7.39 nM
N#Cc1c(N2CCN(c3ncccn3)CC2)cc(-c2cc3ccccc3o2)c2c1CCCC2 | EGFR C797S/L858R/T790M | enzyme activity, inhibitor |  | 3260 nM
CCN1CCC2(CC1)C/C(=N\NC(=O)Nc1ccccc1)c1ccccc1O2 | EGFR | enzyme activity, inhibitor |  | 132 nM
CCOC(=O)/C(=N\Nc1ccc(S(=O)(=O)Nc2ncccn2)cc1)C(=O)c1ccccc1 | EGFR | enzyme activity, inhibitor, TR-FRET |  | 38.9 nM
O=C(O[C@@H]1Cc2c(O)cc(O)cc2O[C@@H]1c1cc(O)c(O)c(O)c1)c1cc(O)c(O)c(O)c1 | EGFR L858R/T790M | kinase activity, inhibitor, Z′-LYTE | together with: 10 µM ATP | 118 ± 0.07 nM
COc1cc(N(C)CCN(C)C)c(NC(=O)/C=C/c2ccc3c(c2)OCO3)cc1Nc1nccc(-c2cn(C)c3ccccc23)n1 | EGFR L858R/T790M | enzyme activity, inhibitor |  | 1390 nM
CSC(=NN=C(C)c1ccc(S(=O)(=O)N2CCC(C)CC2)cc1)N(C)C | EGFR | enzyme activity, inhibitor |  | 250 nM
COCC1CN(C2CCN(c3cc(OC)c(Nc4ncc(Br)c(Nc5ccc6c(c5P(C)(C)=O)OCCO6)n4)cc3C)CC2)C1 | EGFR C797S/del746-750/T790M | kinase activity, TR-FRET | together with: ATP at Km | < 1.5 nM
Oc1ncnc2c1sc1sc3c(O)ncnc3c12 | EGFR T790M | kinase activity, HTRF |  | 7260 ± 320 nM
Cc1ccc(S(=O)(=O)c2c(-c3ccccc3)c3c(C)c4ccccc4n3c3ccccc23)cc1 | EGFR | enzyme activity, inhibitor, ADP detection |  | 280 nM
COc1ccc(C=C2SC(N3N=C(c4cccs4)CC3c3ccc(F)cc3)=NC2=O)cc1 (centres unmarked) | EGFR | enzyme activity, inhibitor |  | 305 nM
C=CC(=O)N1CCC[C@@H](n2nc(-c3cccc(C(F)(F)F)c3)c3c(N)ncnc32)C1 | EGFR L858R/T790M | cell-free assay |  | 223 nM
CC[C@H](C(=O)N1CCCC[C@H]1C(=O)O[C@H](CCc1ccc(OC)c(OC)c1)c1cccc(OCC(=O)NCCC(=O)N2CCN(CCCOc3cc4c(Nc5ccc(F)c(Cl)c5)ncnc4cc3OC)CC2)c1)c1cc(OC)c(OC)c(OC)c1 | EGFR | enzyme activity, inhibitor, TR-FRET |  | 0.38 nM
CCCCCCCCCCCCOc1c(O)cc(C(=O)OC2Cc3c(O)cc(O)cc3OC2c2cc(O)c(O)c(O)c2)cc1O (centres unmarked) | EGFR | kinase activity, inhibitor, Z′-LYTE | together with: 10 µM ATP | 21.46 ± 0.05 nM
CC(C)c1ccc(-c2cc(C(=O)N3CCN(C(=O)c4cc(-c5ccc(C(C)C)cc5)nc5ccccc45)CC3)c3ccccc3n2)cc1 | EGFR C797S/L858R/T790M | enzyme activity, inhibitor |  | > 10000 nM
CCCCCCCCCCOc1c(O)cc(C(=O)OC2Cc3c(O)cc(O)cc3OC2c2cc(O)c(O)c(O)c2)cc1O (centres unmarked) | EGFR L858R/T790M | kinase activity, inhibitor, Z′-LYTE | together with: 10 µM ATP | 103.8 ± 0.08 nM

Structure (SMILES) | target | test | conditions | IC50
O=c1[nH]c2ccccc2nc1/C=C/c1ccccc1Br | EGFR | enzyme activity, inhibitor, TR-FRET |  | > 100000 nM
Cc1ccc(C2=NN(C3=NC(=O)C(=Cc4ccc(O)cc4)S3)C(c3ccc(F)cc3)C2)cc1 (centres unmarked) | EGFR | enzyme activity, inhibitor |  | 83 nM
N#Cc1ccc(O)c(-c2nc(NCCN3CCNCC3)c3ccccc3n2)c1 | EGFR C797S/L858R/T790M | enzyme activity, inhibitor, ATP luminescence |  | 736 nM
O=C(Nc1ccc(-c2noc(C3CC3)n2)c(Cl)c1)c1cccs1 | EGFR | enzyme activity, Kinase-Glo luminescence |  | 1980 ± 690 nM
CCCCCCCCCCCCCCOc1c(O)cc(C(=O)O[C@@H]2Cc3c(O)cc(O)cc3O[C@@H]2c2cc(O)c(O)c(O)c2)cc1O | EGFR | kinase activity, inhibitor, Z′-LYTE | together with: 10 µM ATP | 49.9 ± 0.05 nM
C#Cc1cccc(Nc2ncnc3cc(OC)c(OCCCN4CCOCC4)cc23)c1 | EGFR (Homo sapiens, UniProt P00533, L858R) | enzyme activity, inhibitor | 30 min, L858R mutant, together with: ATP 80.8 µM | 1.1 nM
CN(C(=O)c1ccn2ncc(-c3ccc(C(N)=O)cc3)c2c1)c1ccc(C#N)cn1 | EGFR | enzyme activity, inhibitor |  | > 10000 nM
Cc1nc(-c2ccc(NC(=O)c3cccs3)cc2Cl)no1 | EGFR T790M | enzyme activity, inhibitor, ATP luminescence |  | < 50000 nM
CC(=NN=c1sc(C(=O)c2ccccc2)nn1-c1ccccc1)c1ccc(S(=O)(=O)N2CCC(C)CC2)cc1 | EGFR | enzyme activity, inhibitor |  | 1310 nM
CN1CCN(c2ccc(Nc3ncc(Cl)c(Nc4ccccc4NS(=O)(=O)C4CC4)n3)cc2)CC1 | EGFR C797S/L858R/T790M | enzyme activity, inhibitor, ELISA |  | 1.37 nM
Oc1ccc(Cl)cc1-c1nc(NCCN2CCNCC2)c2ccccc2n1 | EGFR C797S/del746-750/T790M | kinase activity, inhibitor, Kinase-Glo Plus | 40 min, 30 °C, together with: ATP 10 µM | 89 ± 4 nM
CC(C)(C)c1nc(-c2ccc(NC(=O)c3cccs3)cc2Cl)no1 | EGFR | enzyme activity, inhibitor, ATP luminescence |  | 16000 nM
N=c1c2sc3sc4c(=N)n(-c5ccccc5)c(=S)[nH]c4c3c2[nH]c(=S)n1-c1ccccc1 | EGFR T790M | kinase activity, HTRF |  | 17300 ± 690 nM
C=CC(=O)N1CCC[C@@H](n2nc(-c3ccccc3)c3c(N)ncnc32)C1 | EGFR L858R/T790M | cell-free assay |  | 243 nM
Nc1ncnc2c1sc1sc3c(N)ncnc3c12 | EGFR T790M | kinase activity, HTRF |  | 5020 ± 190 nM
COc1ccc2c(c1)c(C)c1c(-c3ccccc3)c(S(=O)(=O)c3ccc(C)cc3)c3ccccc3n12 | EGFR | enzyme activity, inhibitor, ADP detection |  | 440 nM
C=CC(=O)N1CCC[C@@H](n2nc(-c3cnc4[nH]ccc4c3)c3c(N)ncnc32)C1 | EGFR L858R/T790M | cell-free assay |  | 2.7 nM

Some of these lines once more:
Structure (SMILES) | target | test | conditions | IC50
N#Cc1ccc(O)c(-c2nc(NCCN3CCNCC3)c3ccccc3n2)c1 | EGFR C797S/L858R/T790M | enzyme activity, inhibitor, ATP luminescence |  | 736 nM
Cc1ccc(C2=NN(C3=NC(=O)C(=Cc4ccc(O)cc4)S3)C(c3ccc(F)cc3)C2)cc1 (centres unmarked) | EGFR | enzyme activity, inhibitor |  | 83 nM
CSC(=NN=C(C)c1ccc(S(=O)(=O)N2CCC(C)CC2)cc1)N(C)C | EGFR | enzyme activity, inhibitor |  | 250 nM
N#Cc1c(N2CCN(c3ncccn3)CC2)cc(-c2cc3ccccc3o2)c2c1CCCC2 | EGFR C797S/L858R/T790M | enzyme activity, inhibitor |  | 3260 nM
